Experimental data collected from several papers.
Lines come from different studies, so protocols differ. Values joined by “and” are separate records of one study, mostly repeats; a detail may differ. Numbers after ± are the reported error.

Structure (SMILES) | assay | test system | setting | scale | quantity | value
COc1ccc(C)cc1NC(=O)OC1CC2CCCC(C1)N2Cc1ccc(CC[18F])cc1 (stereo not drawn) |  | BALB/c mice EMT6 tumour, kidney | dose not given, 2 h | reference: initial activity | activity reduction | 75%
CC[C@H](C)[C@H](NC(=O)[C@H](CCC(=O)O)NC(=O)[C@H](CCC(=O)O)NC(=O)[C@H](Cc1ccccc1)NC(=O)[C@H](CC(=O)O)NC(=O)CNC(=O)[C@H](CC(N)=O)NC(=O)CNC(=O)CNC(=O)CNC(=O)CNC(=O)[C@@H]1CCCN1C(=O)[C@H](CCCNC(=N)N)NC(=O)[C@@H]1CCCN1C(=O)[C@H](N)Cc1ccccc1)C(=O)N1CCC[C@H]1C(=O)N[C@@H](CCC(=O)O)C(=O)N[C@@H](CCC(=O)O)C(=O)N[C@@H](Cc1ccc(O)cc1)C(=O)N[C@@H](CC(C)C)C(=O)O | LC-MS/MS | human plasma | -20 to 25 °C, three freeze-thaw cycles, nominal 30.0 ng/mL |  | concentration | 29.7 ± 1.3 ng/mL
CC[C@H](C)C(=O)N1CCC(NC(=O)Nc2ccc(OC(F)(F)F)c(F)c2)CC1 |  | human, plasma | oral, 8 mg, single dose, healthy volunteers |  | AUC(0-t) | 3450 ng·h/mL
NCCCC[C@H](NC(=O)[C@H](CCCCN)NC(=O)[C@H](CCCCN)NC(=O)c1cc(NC(=O)[C@H](CCCCN)NC(=O)[C@H](CCCCN)NC(=O)[C@@H](N)CCCCN)cc(NC(=O)[C@H](CCCCN)NC(=O)[C@H](CCCCN)NC(=O)[C@@H](N)CCCCN)c1)C(=O)O | UHPLC | human plasma | 500 µM, 37 °C |  | serum stability time | < 4 min
C[S]1CC[S]2CC[P](CO)(CO)[99Tc+]12.[C-]#[O+].[C-]#[O+].[C-]#[O+] |  | CF-1 mouse | intravenous, 1 h |  | uptake in small intestine | 23.3 %ID
CCCCCCCCC1(CCCCCCCC)c2cc(-c3cc4[n+]5c(c3)-c3cccc[n+]3[Ir-3]536([c]5c(c(C)cc(C)c5-c5cccc[n+]53)-c3cccc[n+]36)[n+]3ccccc3-4)ccc2-c2ccc(-c3cc4[n+]5c(c3)-c3cccc[n+]3[Ir-3]536([c]5c(c(C)cc(C)c5-c5cccc[n+]53)-c3cccc[n+]36)[n+]3ccccc3-4)cc21.F[P-](F)(F)(F)(F)F.F[P-](F)(F)(F)(F)F.F[P-](F)(F)(F)(F)F.F[P-](F)(F)(F)(F)F |  | acetonitrile | 5 µM | reference: [Ru(bpy)3](PF6)2 | singlet oxygen quantum yield | 0.04
COC(=O)C[C@](O)(CCCC(C)(C)OC(C)=O)C(=O)O[C@@H]1C(OC)=C[C@]23CCCN2CCc2cc4c(cc2[C@H]13)OCO4 |  | CD1 mouse, brain | subcutaneous, 1 mg/kg, 2 h |  | tissue concentration | 3.37 ng/mL
CC(=CCC(O)C(C)=Cc1csc(C)n1)CC=CC(C)C(O)C(C)C(=O)C(C)(C)C(O)CC(=O)O (stereo not drawn) |  | human, plasma | intravenous infusion, 15.0 mg/m2 KOS-1584, 3 h infusion, cycle 1 |  | half-life | 25.7 ± 4.09 h
CC(C)[C@H](NC(=O)CNC(=O)[C@H](CCC(N)=O)NC(=O)[C@H](C)N)C(=O)O | item: short-lasting postural dizziness | human | concentration not given, multiple dosing, lowest dose |  | subjects with adverse event | 33%
O=C(CN1CCN(c2cc3c(cc2F)c(=O)c(C(=O)O)cn3C2CC2)CC1)Nc1ccc(Cl)cc1 | two-compartment model | BALB/c mice, female | intravenous, 3.75 mg/kg |  | terminal half-life | 6.51 h
CN(C)C(CNC(=O)Nc1cc(C(F)(F)F)ccc1N1CCOCC1)c1ccncc1 (stereo not drawn) |  | mouse, serum | intraperitoneal, 240 mg/kg single dose |  | serum osmolarity | 310 mmol/L
CC[C@H](C)[C@H](NC(=O)[C@H](C)NC(=O)CNC(=O)[C@@H](N)CCSC)C(=O)N[C@@H](C)C(=O)N[C@@H](CCCCN)C(=O)N[C@@H](CC(C)C)C(=O)N[C@H](C(=O)N[C@@H](C)C(=O)N[C@@H](CCCCN)C(=O)N[C@@H](Cc1ccccc1)C(=O)NCC(=O)N[C@@H](Cc1c[nH]c2ccccc12)C(=O)N1CCC[C@H]1C(=O)N[C@@H](Cc1ccccc1)C(=O)N[C@H](C(=O)N[C@@H](CCCCN)C(=O)N[C@@H](CCCCN)C(=O)N[C@@H](Cc1ccccc1)C(=O)N[C@@H](Cc1ccc(O)cc1)C(=O)N[C@@H](CCCCN)C(=O)N[C@@H](CCC(N)=O)C(=O)N[C@H](C(=O)N[C@@H](CCSC)C(=O)N[C@@H](CCC(N)=O)C(=O)N[C@@H](Cc1ccccc1)C(=O)N[C@H](C(=O)NCC(=O)N[C@@H](CCC(N)=O)C(=O)NCC(=O)N[C@@H](Cc1c[nH]c2ccccc12)C(=O)N[C@H](C(=O)N[C@H](C(=O)N[C@@H](CC(=O)O)C(=O)N[C@@H](CCC(N)=O)C(=O)N[C@H](C(=O)N[C@@H](CCC(=O)O)C(=O)N[C@@H](CCCCN)C(=O)N[C@@H](Cc1c[nH]c2ccccc12)C(=O)N[C@@H](CCCNC(=N)N)C(=O)N[C@@H](CCCCN)C(=O)N[C@@H](CCCNC(=N)N)C(=O)N[C@@H](Cc1c[nH]cn1)C(=O)O)[C@@H](C)CC)[C@@H](C)CC)[C@@H](C)O)[C@@H](C)CC)[C@@H](C)CC)[C@@H](C)CC)C(C)C | thermal unfolding, far-UV CD | 10 mM sodium phosphate | 5-20 µM, pH 7.2 |  | Tm | 44.4 ± 0.3 °C
CN(C)c1ccc(C(=O)NCCCCN2CCN(c3ccccc3O[11CH3])CC2)cc1 |  | Sprague Dawley rat, male, brain | intravenous, 30 min, added: cyclosporin A pretreatment | reference: untreated control | brain uptake increase | 8.82 fold and 8.8 fold
O=C(O)CCCN1CCN2CCN(CC1)CC(=O)[O][Al]([18F])[O]C(=O)C2 |  | Sprague-Dawley rat, normal, intestines and stomach | 10 min |  | bowel uptake | 1.2 ± 0.3 %ID
N=C(N)NCc1ccc(C(=O)NCCCC[C@H](NC(=O)N[C@@H](CCC(=O)O)C(=O)O)C(=O)O)cc1[131I] |  | SCID mouse, PC-3 xenografts, thyroid | 21 h |  | tissue uptake | 0.19 ± 0.06 %ID/g

A few entries again:
Structure (SMILES) | assay | test system | setting | scale | quantity | value
CC[C@H](C)[C@H](NC(=O)[C@H](C)NC(=O)CNC(=O)[C@@H](N)CCSC)C(=O)N[C@@H](C)C(=O)N[C@@H](CCCCN)C(=O)N[C@@H](CC(C)C)C(=O)N[C@H](C(=O)N[C@@H](C)C(=O)N[C@@H](CCCCN)C(=O)N[C@@H](Cc1ccccc1)C(=O)NCC(=O)N[C@@H](Cc1c[nH]c2ccccc12)C(=O)N1CCC[C@H]1C(=O)N[C@@H](Cc1ccccc1)C(=O)N[C@H](C(=O)N[C@@H](CCCCN)C(=O)N[C@@H](CCCCN)C(=O)N[C@@H](Cc1ccccc1)C(=O)N[C@@H](Cc1ccc(O)cc1)C(=O)N[C@@H](CCCCN)C(=O)N[C@@H](CCC(N)=O)C(=O)N[C@H](C(=O)N[C@@H](CCSC)C(=O)N[C@@H](CCC(N)=O)C(=O)N[C@@H](Cc1ccccc1)C(=O)N[C@H](C(=O)NCC(=O)N[C@@H](CCC(N)=O)C(=O)NCC(=O)N[C@@H](Cc1c[nH]c2ccccc12)C(=O)N[C@H](C(=O)N[C@H](C(=O)N[C@@H](CC(=O)O)C(=O)N[C@@H](CCC(N)=O)C(=O)N[C@H](C(=O)N[C@@H](CCC(=O)O)C(=O)N[C@@H](CCCCN)C(=O)N[C@@H](Cc1c[nH]c2ccccc12)C(=O)N[C@@H](CCCNC(=N)N)C(=O)N[C@@H](CCCCN)C(=O)N[C@@H](CCCNC(=N)N)C(=O)N[C@@H](Cc1c[nH]cn1)C(=O)O)[C@@H](C)CC)[C@@H](C)CC)[C@@H](C)O)[C@@H](C)CC)[C@@H](C)CC)[C@@H](C)CC)C(C)C | thermal unfolding, far-UV CD | 10 mM sodium phosphate | 5-20 µM, pH 7.2 |  | Tm | 44.4 ± 0.3 °C
N=C(N)NCc1ccc(C(=O)NCCCC[C@H](NC(=O)N[C@@H](CCC(=O)O)C(=O)O)C(=O)O)cc1[131I] |  | SCID mouse, PC-3 xenografts, thyroid | 21 h |  | tissue uptake | 0.19 ± 0.06 %ID/g
